# Measured values from different studies.
# Each line is one published result; not all experiments were run side by side. Values joined by “and” are separate records of one study, mostly repeats; a detail may differ. ± marks the error that the study gave.
# folP: Dihydropteroate synthase (folP, Bacteria, UniProt P0AC13)
# UniProt P0AC13, sequence (whole entry, looked up): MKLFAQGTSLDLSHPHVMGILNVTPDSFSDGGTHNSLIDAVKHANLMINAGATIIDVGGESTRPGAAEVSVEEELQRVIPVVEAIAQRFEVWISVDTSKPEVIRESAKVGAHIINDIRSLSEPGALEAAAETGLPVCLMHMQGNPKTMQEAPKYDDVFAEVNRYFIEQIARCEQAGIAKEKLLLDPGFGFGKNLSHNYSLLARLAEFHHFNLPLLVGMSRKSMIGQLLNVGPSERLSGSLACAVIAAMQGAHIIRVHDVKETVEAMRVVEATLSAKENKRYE
# T1: RNA aptamer; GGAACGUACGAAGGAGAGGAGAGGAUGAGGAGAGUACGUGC
# UniProt P30048, sequence (whole entry, looked up): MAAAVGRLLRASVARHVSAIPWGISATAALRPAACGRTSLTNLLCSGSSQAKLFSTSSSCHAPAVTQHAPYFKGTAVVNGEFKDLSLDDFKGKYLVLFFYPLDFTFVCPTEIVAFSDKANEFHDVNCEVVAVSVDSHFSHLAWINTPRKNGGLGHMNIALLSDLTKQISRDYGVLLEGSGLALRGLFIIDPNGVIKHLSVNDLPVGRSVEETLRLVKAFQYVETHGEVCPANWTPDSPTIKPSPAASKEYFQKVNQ
# UniProt Q9NZQ7, sequence (whole entry, looked up): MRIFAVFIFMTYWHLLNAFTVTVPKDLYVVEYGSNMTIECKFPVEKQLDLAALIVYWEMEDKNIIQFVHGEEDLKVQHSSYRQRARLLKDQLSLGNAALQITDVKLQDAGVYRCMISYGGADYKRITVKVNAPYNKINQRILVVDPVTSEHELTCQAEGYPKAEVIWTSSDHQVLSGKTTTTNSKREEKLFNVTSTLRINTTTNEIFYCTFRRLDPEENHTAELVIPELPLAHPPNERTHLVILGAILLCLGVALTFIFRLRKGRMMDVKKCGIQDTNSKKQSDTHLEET
# UniProt Q96EB6, sequence (whole entry, looked up): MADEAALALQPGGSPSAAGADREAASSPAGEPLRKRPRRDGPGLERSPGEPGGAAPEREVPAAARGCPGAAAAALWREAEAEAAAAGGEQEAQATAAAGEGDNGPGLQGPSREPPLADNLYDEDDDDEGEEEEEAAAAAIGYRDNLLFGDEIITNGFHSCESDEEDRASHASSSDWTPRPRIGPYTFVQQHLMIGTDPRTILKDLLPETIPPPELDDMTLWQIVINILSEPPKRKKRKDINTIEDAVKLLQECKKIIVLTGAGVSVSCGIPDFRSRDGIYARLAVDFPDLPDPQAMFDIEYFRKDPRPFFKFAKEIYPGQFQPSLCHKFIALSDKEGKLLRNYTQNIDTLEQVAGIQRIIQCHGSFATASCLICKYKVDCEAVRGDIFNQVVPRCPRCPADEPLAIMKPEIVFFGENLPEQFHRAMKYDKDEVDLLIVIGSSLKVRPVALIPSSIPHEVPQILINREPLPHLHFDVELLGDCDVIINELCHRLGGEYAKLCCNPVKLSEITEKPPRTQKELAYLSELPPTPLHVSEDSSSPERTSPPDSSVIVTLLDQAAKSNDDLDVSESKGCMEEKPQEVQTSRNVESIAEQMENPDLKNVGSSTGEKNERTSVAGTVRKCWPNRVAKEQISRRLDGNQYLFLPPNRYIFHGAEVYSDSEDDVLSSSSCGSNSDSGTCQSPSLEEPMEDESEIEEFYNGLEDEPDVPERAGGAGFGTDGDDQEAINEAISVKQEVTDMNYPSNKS
# UniProt Q9UPE1, sequence (whole entry, looked up): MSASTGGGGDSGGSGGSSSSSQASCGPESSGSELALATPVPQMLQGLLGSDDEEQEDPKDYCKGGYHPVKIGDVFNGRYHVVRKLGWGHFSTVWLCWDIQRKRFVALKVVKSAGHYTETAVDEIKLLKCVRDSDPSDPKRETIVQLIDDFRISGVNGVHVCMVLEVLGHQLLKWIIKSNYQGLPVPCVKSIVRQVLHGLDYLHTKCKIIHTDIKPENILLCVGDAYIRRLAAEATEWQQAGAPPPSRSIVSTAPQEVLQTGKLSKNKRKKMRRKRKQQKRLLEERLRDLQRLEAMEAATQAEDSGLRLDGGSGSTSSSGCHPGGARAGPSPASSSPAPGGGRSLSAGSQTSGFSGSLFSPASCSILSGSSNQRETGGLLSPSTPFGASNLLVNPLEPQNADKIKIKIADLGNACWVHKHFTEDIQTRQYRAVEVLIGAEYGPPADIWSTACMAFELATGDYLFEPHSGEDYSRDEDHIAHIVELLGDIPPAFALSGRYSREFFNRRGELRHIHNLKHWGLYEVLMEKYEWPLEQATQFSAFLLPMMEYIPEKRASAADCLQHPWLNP
# UniProt P18031, sequence (whole entry, looked up): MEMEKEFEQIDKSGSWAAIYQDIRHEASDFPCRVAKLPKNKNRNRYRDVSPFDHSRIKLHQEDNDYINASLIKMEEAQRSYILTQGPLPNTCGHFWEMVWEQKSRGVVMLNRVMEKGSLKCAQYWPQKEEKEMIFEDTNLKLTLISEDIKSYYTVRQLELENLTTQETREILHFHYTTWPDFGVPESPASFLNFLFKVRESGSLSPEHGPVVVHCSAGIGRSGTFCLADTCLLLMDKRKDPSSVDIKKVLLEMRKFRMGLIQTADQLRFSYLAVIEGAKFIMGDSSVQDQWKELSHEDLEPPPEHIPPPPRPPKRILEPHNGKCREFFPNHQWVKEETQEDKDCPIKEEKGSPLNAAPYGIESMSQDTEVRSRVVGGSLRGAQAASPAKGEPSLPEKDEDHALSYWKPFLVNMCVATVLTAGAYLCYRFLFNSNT
# UniProt Q9HB29, sequence (whole entry, looked up): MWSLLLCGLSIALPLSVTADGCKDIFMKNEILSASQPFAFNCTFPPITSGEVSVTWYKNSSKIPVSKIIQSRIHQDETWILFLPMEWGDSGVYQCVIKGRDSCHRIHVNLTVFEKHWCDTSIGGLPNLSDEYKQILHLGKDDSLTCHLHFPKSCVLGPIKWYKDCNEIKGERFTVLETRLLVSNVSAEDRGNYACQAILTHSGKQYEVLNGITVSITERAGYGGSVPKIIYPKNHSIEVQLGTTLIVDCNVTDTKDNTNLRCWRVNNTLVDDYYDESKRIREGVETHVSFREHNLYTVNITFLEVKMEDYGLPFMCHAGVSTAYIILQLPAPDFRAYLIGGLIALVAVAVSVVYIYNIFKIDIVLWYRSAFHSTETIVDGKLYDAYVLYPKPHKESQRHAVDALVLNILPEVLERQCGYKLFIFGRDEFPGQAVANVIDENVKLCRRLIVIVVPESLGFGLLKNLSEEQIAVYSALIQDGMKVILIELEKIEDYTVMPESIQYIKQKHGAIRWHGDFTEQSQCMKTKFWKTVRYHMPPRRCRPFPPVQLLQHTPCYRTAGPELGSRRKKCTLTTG
# UniProt Q3TRM4, sequence (whole entry, looked up): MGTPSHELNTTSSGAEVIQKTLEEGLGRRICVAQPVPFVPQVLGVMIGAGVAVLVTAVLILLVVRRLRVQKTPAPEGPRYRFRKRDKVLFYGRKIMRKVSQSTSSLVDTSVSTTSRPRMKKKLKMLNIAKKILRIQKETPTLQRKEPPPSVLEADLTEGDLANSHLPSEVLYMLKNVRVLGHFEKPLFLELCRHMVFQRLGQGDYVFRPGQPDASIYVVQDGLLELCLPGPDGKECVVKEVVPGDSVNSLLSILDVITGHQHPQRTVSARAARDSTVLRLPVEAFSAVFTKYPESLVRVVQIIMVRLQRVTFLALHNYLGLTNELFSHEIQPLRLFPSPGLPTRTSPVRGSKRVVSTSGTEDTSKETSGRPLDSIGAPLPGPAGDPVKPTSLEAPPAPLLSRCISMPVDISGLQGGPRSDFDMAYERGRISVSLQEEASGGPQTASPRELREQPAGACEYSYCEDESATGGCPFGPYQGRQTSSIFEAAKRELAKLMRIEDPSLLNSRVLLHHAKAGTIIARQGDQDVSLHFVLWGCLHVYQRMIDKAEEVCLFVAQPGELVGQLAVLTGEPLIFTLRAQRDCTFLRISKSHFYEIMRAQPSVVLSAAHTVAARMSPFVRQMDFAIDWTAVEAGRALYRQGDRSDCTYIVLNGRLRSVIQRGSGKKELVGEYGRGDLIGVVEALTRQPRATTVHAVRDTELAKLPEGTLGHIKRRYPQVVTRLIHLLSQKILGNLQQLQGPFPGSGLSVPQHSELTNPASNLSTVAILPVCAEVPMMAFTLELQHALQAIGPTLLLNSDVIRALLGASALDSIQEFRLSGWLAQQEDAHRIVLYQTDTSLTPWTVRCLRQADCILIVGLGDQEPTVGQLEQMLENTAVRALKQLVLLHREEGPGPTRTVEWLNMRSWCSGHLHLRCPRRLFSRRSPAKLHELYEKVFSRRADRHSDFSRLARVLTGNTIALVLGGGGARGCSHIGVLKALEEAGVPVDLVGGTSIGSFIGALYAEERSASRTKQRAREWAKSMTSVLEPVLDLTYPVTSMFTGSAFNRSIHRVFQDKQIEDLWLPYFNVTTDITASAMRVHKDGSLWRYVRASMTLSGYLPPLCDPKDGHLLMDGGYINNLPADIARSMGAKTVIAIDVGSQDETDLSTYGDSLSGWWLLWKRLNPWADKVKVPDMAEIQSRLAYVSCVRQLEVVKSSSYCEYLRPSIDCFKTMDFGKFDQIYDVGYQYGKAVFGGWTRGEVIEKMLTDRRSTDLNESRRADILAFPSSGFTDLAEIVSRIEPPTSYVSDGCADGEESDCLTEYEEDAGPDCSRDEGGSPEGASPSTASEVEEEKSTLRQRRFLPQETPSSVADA
# UniProt P17706, sequence (whole entry, unmodified, looked up): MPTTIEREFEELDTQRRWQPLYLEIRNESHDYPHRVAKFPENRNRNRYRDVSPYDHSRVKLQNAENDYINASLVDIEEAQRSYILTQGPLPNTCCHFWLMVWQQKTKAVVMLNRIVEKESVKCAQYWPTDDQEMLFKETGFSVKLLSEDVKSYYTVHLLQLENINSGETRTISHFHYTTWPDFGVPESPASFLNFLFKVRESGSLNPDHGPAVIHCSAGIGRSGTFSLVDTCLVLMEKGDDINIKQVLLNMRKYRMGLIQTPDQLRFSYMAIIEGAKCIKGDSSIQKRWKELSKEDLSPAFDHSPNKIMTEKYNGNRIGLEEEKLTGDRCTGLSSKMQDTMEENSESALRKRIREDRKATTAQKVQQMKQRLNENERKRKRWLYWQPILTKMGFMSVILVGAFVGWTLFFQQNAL
Compound,tested on,test,test system,conditions,how to read,endpoint,result
CCC1Sc2ccc(S(=O)(=O)CCC(=O)Nc3cccc4ccccc34)cc2NC1=O (stereo not shown),"P2X purinoceptor 7 (Ailuropoda melanoleuca, UniProt G1M6C4)","ATP-evoked current, inhibitor, whole-cell patch clamp",HEK293 transfected,"1 µM, wild type",,remaining current,74.9%
Cn1c(=O)n(C2CCC(=O)NC2=O)c2ccc(C3CCN(CC(=O)Nc4cccc(CS(=O)(=O)N5CC[C@H](Nc6cccc(-c7sc(C(=O)O)c(OCC(=O)O)c7Cl)c6)CC5(C)C)c4)CC3)cc21 (stereo partly shown),"PTPN2 (Homo sapiens, UniProt P17706, H30A/P33A/R35A)","degrader, bio-layer interferometry",,250 nM,higher = more binding,BLI binding response,0.422 a.u.
Cn1nnnc1NCc1nn(C)c2nc(N)[nH]c(=O)c2c1=O,folP,CETSA HiBiT,"Escherichia coli, whole cells",,,melting temperature,58.1 °C
CC[C@H](C)[C@H](NC(=O)[C@H](CCC(=O)O)NC(=O)[C@H](CCC(=O)O)NC(=O)[C@H](Cc1ccccc1)NC(=O)[C@H](CCCCN)NC(=O)[C@@H]1CCCN1C(=O)[C@H](Cc1c[nH]cn1)NC(=O)[C@H](CCCCN)NC(=O)[C@H](CO)NC(=O)[C@H](CC(C)C)NC(=O)[C@H](Cc1c[nH]cn1)NC(C)=O)C(=O)N[C@@H](CC(C)C)C(=O)N[C@H](C(=O)N[C@@H](CCCNC(=N)N)C(=O)N[C@@H](CC(C)C)C(=O)N[C@@H](CCCNC(=N)N)C(=O)N[C@@H](CC(C)C)C(=O)N[C@@H](CCC(N)=O)C(N)=O)[C@@H](C)O,"Calmodulin-1, N-lobe fragment (CALM1, Homo sapiens, UniProt P0DP23)",ITC,,"concentration not given, N-lobe, with: 1 mM CaCl2",,binding stoichiometry,1.1
CCCCCC(O)/C=C/C=O (stereo not shown),"IDH1 (Homo sapiens, UniProt O75874)",competitive isoTOP-ABPP,"proteome, soluble, MDA-MB-231","100 µM, 60 min, with: iodoacetamide probe","baseline: DMSO over compound-treated, higher = stronger cysteine blockade",isoTOP-ABPP competition ratio,1.3
CC1(C)CC[C@@]2(CO)C(=C3C=C[C@@H]4[C@@]5(C)CC[C@H](O)[C@@](C)(CO)[C@@H]5CC[C@@]4(C)[C@]3(C)C[C@@H]2O)C1,"SIRT1 (Homo sapiens, UniProt Q96EB6)","binding, microscale thermophoresis",,46.3 nM,,MST normalised fluorescence,910 a.u.
Cn1nc(CCCC(=O)O)c(=O)c2c(=O)[nH]c(N)nc21,folP,CETSA HiBiT,"Escherichia coli, whole cells",,,melting temperature,57 °C
COCCCCCNc1nc(NCCCCCCN(C)C)c2cc(NC(=O)/C=C/CN(C)C)ccc2n1,"SETDB1 (Homo sapiens, UniProt Q15047)","cell-free assay, inhibitor, FP",,7.813 nM,,remaining signal,119%
CC(C(=O)O)c1n[nH]c2nc(N)[nH]c(=O)c2c1=O (stereo not shown),folP,CETSA HiBiT,"Escherichia coli, whole cells",,,melting temperature,60.2 °C
CC(C)[C@@H]1NC(=O)[C@H](Cc2ccccc2)NC(=O)CSC[C@@H](C(N)=O)NC(=O)[C@H](CCC(=O)O)NC(=O)[C@H](CO)NC(=O)[C@H](Cc2c[nH]c3cccc(Cl)c23)NC(=O)[C@H](C2CCCCC2)NC(=O)[C@H](C(C)C)NC(=O)[C@H](Cc2ccc(O)cc2)NC(=O)[C@H](CC(=O)O)NC(=O)[C@H](Cc2c[nH]c3ccccc23)NC(=O)[C@H](Cc2ccc(N)nc2)NC(=O)[C@H](Cc2c[nH]c3ccc(Cl)cc23)NC(=O)[C@H](CCC(=O)O)NC1=O,"Interleukin-1 receptor-like 2 (IL1RL2, Homo sapiens, UniProt Q9HB29)","reporter gene (SEAP), inhibitor, HEK-Blue IL-36R reporter",HEK-Blue IL-36R cells,"0.005 µM, 6 h, with: IL-36β 0.01 ng/mL",,remaining activity,81.6%
CC(C)OCCOCc1ccc(OCC(O)CN(N=O)C(C)C)cc1 (stereo not shown),Salmonella typhimurium,Ames test,TA100,"50 µg/plate, without metabolic activation",baseline: solvent control,revertant fold increase,0.8 fold
NC(=O)[C@H](Cc1c[nH]c2ccccc12)NC(=O)[C@@H]1C[C@H]2CCCC[C@@H]2N1C(=O)[C@H](Cc1c[nH]c2ccccc12)NC(=O)CCl,"PIN1 (Homo sapiens, UniProt Q13526)","protein denaturation, thermal shift",,,,first transition share,80%
CC1=C(/C=C/C(C)=C\C=C\C(C)=C\C=O)C(C)(C)CCC1,"Rhodopsin (RHO, Homo sapiens, UniProt P08100, E181K)","ER retention, co-localization with calnexin",COS-7 transfected E181K,"10 µM, mononucleated cells",,Pearson correlation coefficient,0.586 ± 0.01
Cn1nc(C(=O)O)c(=O)c2c(=O)[nH]c(N)nc21,folP,CETSA HiBiT,"Escherichia coli, whole cells",concentration not given,baseline: whole cell over lysate ΔTm,target engagement efficiency,14%
CCCCCC=CC=C1C(=O)C=CC1CC=CCCCC(=O)O (stereo not shown),"Bridging integrator 3 (BIN3, Homo sapiens, UniProt Q9NQY0)","competitive isoTOP-ABPP, measured: BIN3 cysteine peptide",Ramos soluble proteome,"100 µM, with: iodoacetamide probe","baseline: DMSO over compound-treated, higher = stronger cysteine blockade",isoTOP-ABPP competition ratio,2.3
C=C(NC(=O)c1csc(-c2nc3c(cc2O)-c2nc(cs2)C(=O)NC(C(C)O)C(=O)NC(=C(C)OC)c2nc(cs2)C(=O)NC2c4nc(cs4)C(=O)NC(COC(=O)c4c5c6c(cccc6n4O)COC(=O)C(OC4CC(C)(O)C(N(C)C)C(C)O4)C2OC5)c2nc-3cs2)n1)C(N)=O (stereo not shown),,,"ICR mice, Streptococcus pneumoniae ATCC 49169 infected, immunocompromised, blood","intravenous, 32 mg/kg/day twice daily",,half-life,7.43 h
COC1CN([C@H]2CC[C@H]([C@@]3(C)Oc4c(Cl)cc(C(=O)NCc5c(SC)cc(C)[nH]c5=O)c(C)c4O3)CC2)C1,,"RNA-seq, measured: NDNF mouse homolog","mouse, HT-1376 xenograft, whole blood",dose not given,baseline: vehicle,log2 fold change,0.21
COC(=O)[C@@]1(Cc2ccccc2)C=C(C(=O)OC(C)(C)C)C(=O)CC1,"MAPK14 (Homo sapiens, UniProt Q16539, C119V)","peptide binding, fluorescence polarization",,7.812 µM,,fraction bound,0.527
O=C(O[C@@H]1Cc2c(O)cc(O)cc2O[C@@H]1c1cc(O)c(O)c(O)c1)c1cc(O)c(O)c(O)c1,"Albumin (ALB, Homo sapiens, UniProt P02768)",Scatchard plot,,"concentration not given, with: 10 µM HSA",,number of binding sites,0.91
O=C1c2sc(-c3ccc(N4CCC(CO)CC4)nc3F)nc2CCN1c1cccnc1,PCP site,radioligand binding,,"1 µM, with: antagonist radioligand",,inhibition,19%
CCOC(=O)Cc1n[nH]c2nc(N)[nH]c(=O)c2c1=O,folP,CETSA HiBiT,whole cells,,,melting temperature,64.9 °C
COc1cc(Nc2nccc(-c3cnn4nc(OC)ccc34)n2)cc(C(F)(F)F)c1,"FLT3 (Homo sapiens, UniProt P36888, D835Y)",binding,,1 µM,,remaining binding,100%
C=CC(=O)Nc1cccc(Cn2ncc3cnc(Nc4cnn(CCOC)c4)nc32)c1,PFTK1 human,"binding, KINOMEscan",,100 nM,lower = stronger binding,percent of control,100%
O=C(Nc1cccc(C(F)(F)F)c1)Nc1ccccc1O,"SRPK3 (Homo sapiens, UniProt Q9UPE1)","kinase activity, Z'-LYTE",,,,Hill slope,1.03
O=C(N1CCCC1)n1cc(-c2ccc(-c3ccccc3)cc2)nn1,"Patatin-like phospholipase domain-containing protein 6 (Mus musculus, UniProt Q3TRM4)","probe labelling, inhibitor, competitive ABPP-SILAC, measured: Pnpla6",mouse T cells,"concentration not given, 4 h, protein level","baseline: treated over DMSO cells, lower = stronger inhibition",SILAC activity ratio,1.66
Cc1ncsc1-c1ccc(C(C)NC(=O)C2CC(O)CN2C(=O)C(NC(=O)CCCCCCCCCCN2CCCC(Nc3ncc(Cl)c(Nc4ccccc4S(=O)(=O)C(C)C)n3)C2)C(C)(C)C)cc1 (stereo not shown),22Rv1,"RNA-seq, measured: ZNF132 mRNA",,concentration not given,baseline: DMSO,log2 fold change,-1.43
CC1CCCN(CCCNC(=O)C2=Cc3sc4c(c3CS2)CCCC4)C1 (stereo not shown),"Catenin beta-1, residues 141-305 (CTNNB1, Homo sapiens, UniProt P35222)",ITC,,25 °C,,ΔH,-7.9 kcal/mol
Cc1nn(-c2cccc(N)c2)c(=O)c2cnc(Nc3ccc(N4CCNCC4)cc3)nc12,"AMPK alpha2/beta1/gamma1 (PRKAG1/PRKAA2/PRKAB1, Homo sapiens, UniProt P54619+P54646+Q9Y478)","kinase activity, inhibitor, SelectScreen kinase profiling",,,,IC50,3.27 µM
CC1(C)C[C@@H](Nc2cccc(-c3sc(C(=O)O)c(OCC(=O)O)c3Cl)c2)CCN1S(=O)(=O)Cc1cccc(NC(=O)CN2CCC(c3ccc4c(c3)oc(=O)n4C3CCC(=O)NC3=O)CC2)c1 (stereo partly shown),"PTPN1 (Homo sapiens, UniProt P18031)","degrader, bio-layer interferometry",,"62.5 nM, biotinylated protein immobilised",higher = more binding,BLI binding response,0.15 a.u.
C[C@H](NC(=O)CN)C(=O)NCC(=O)N[C@@H](C)C(=O)N[C@@H](C)C(=O)NCC(=O)NCC(=O)N[C@@H](C)C(=O)NCC(=O)NCC(=O)NCC(=O)NCC(=O)NCC(=O)NCC(=O)NCC(=O)N[C@@H](CCCCNC(=O)CCCC[C@@H]1SC[C@@H]2NC(=O)N[C@@H]21)C(N)=O,"CD274 (Homo sapiens, UniProt Q9NZQ7)",flow cytometry,hPD-L1-expressing cells,concentration not given,,binding rate,1.09% and 1.19% and 0.95%
CC(C)Oc1cc(Cl)ccc1CNc1cc(-c2ccccc2)nc2ncnn12,"G-protein coupled receptor 3, homodimer (GPR3, Homo sapiens, UniProt P46089)","binding, size exclusion chromatography",detergent micelles,cpd-free buffer,,dimer stability time,~24 h
COc1ccccc1-c1ccncc1C(=O)Nc1nnc(OCc2ccc(Cl)cc2)s1,"RECQL5 (Homo sapiens, UniProt O94762)","ATPase activity, ADP-Glo",,"0.03 µM, 1 h",,remaining activity,101%
COc1ccc(-c2ccc3c(c2)C(=Cc2sc4ccccc4[n+]2CC(=O)NCCOCCOCCOCCNC(=O)CCCC[C@@H]2SC[C@@H]4NC(=O)N[C@@H]42)C=CN3C)cc1,"T1, RNA aptamer",fluorescence titration,,,,Kd,45 pM
CCCC1(CC)C(=O)N(c2cccc(CN3CCN(Cc4ccc(Br)cc4)CC3)c2)C1=O,"DPP9 (Homo sapiens, UniProt Q86TI2)","enzyme activity, inhibitor",,5 µM,,activity vs control,16%
CC(O)(c1cccc(F)c1)c1cn(C2OC(CO)C(O)C(O)C2O)nn1 (stereo not shown),"Protein Mdm4 (MDM4, Homo sapiens, UniProt O15151)","thermal stability, DSF",,30 µM,,ΔTm,1.2 °C
Nc1ncc(-c2cc(-c3cnn(CC(F)(F)F)c3)ncc2F)nc1C(=O)NC1CNCC(F)C1 (stereo not shown),LOK,KINOMEscan competition binding,,1 µM,baseline: DMSO control,remaining binding,53%
N[C@H]1CC[C@H](Nc2nccc(-c3cccnc3Oc3ccc(NC(=O)NC4CC4)c4ccccc34)n2)CC1,"PRDX3 (Homo sapiens, UniProt P30048)",kinobead competition pulldown,HEK293/HCT116 lysate mixture,"10 µM, 1 h, 4 °C",lower = stronger competition,log2 LFQ intensity,21.8 and 22.8 and 22
